Assay results gathered from unrelated publications.
“And” joins repeats or separate records; there may be more than shown. ± marks the error that the study gave. Converted amounts (≈) assume the structure as drawn.

| Molecule | test | test system | conditions | how to read | quantity | value |
| --- | --- | --- | --- | --- | --- | --- |
| Cc1cc(Nc2ncc(Cl)c(Nc3ccccc3S(=O)(=O)C(C)C)n2)c(OC(C)C)cc1C1CCNCC1 | – | human, plasma | oral, 450 mg/day with food, steady state after dose 9 | – | Css,max total | 909 nM and 1120 nM and 1160 nM and 1090 nM and 1140 nM and 1020 nM and 1050 nM |
| CNC(=O)c1cc(Oc2ccc(NC(=O)Nc3ccc(Cl)c(C(F)(F)F)c3)cc2)ccn1 | LC-MS/MS | nude mice, HepG2 subcutaneous tumour, tumour | intratumoral, 20 µL per tumour, miR-140-3p plus PXR mutant | – | t1/2 | 26.4 ± 7.87 h |
| CC(=O)Nc1noc(C)n1 | HPLC-MS | C57BL/6 mouse, male, intestine | oral, 60 mg/kg, 45 min | – | concentration | 1020 to 8460 ng/g |
| CC(C)NC[C@@H](C(=O)N1CCN(c2ncnc3c2[C@H](C)C[C@H]3O)CC1)c1ccc(Cl)cc1 | – | human, Mild hepatic function (Child-Pugh), plasma | oral, 100 mg single dose, arithmetic mean | – | t1/2 | 48.6 h |
| CN(C)Cc1c(C(=O)NCCOc2ccc(C(=O)NO)cc2)oc2ccccc12 | – | human, plasma | oral, 60 mg, single dose on day -3 | – | half-life (median) | 8.31 h |
| CN(C)C/C=C/C(=O)Nc1cc2c(Nc3ccc(F)c(Cl)c3)ncnc2cc1O[C@H]1CCOC1 | – | human, plasma | oral, 10 mg once daily, day 27, geometric mean | – | half-life at steady state | 47 h |
| CC(=O)N[C@H](CSSC[C@H](N)C(=O)O)C(=O)N[C@H](C)C(=O)N[C@H](CCCNC(=N)N)C(=O)N[C@H](CCCNC(=N)N)C(=O)N[C@H](CCCNC(=N)N)C(=O)N[C@H](C)C(=O)N[C@H](CCCNC(=N)N)C(N)=O | in vitro hemodialysis | bovine blood | – | – | hemodialysis rate constant kAB | 0.0718 min⁻¹ |
| Cc1c2oc3c(C)ccc(C(=O)N[C@@H]4C(=O)N[C@H](C(C)C)C(=O)N5CCC[C@H]5C(=O)N(C)CC(=O)N(C)[C@@H](C(C)C)C(=O)O[C@@H]4C)c3nc-2c(C(=O)N[C@@H]2C(=O)N[C@H](C(C)C)C(=O)N3CCC[C@H]3C(=O)N(C)CC(=O)N(C)[C@@H](C(C)C)C(=O)O[C@@H]2C)c(N)c1=O | – | mouse, FVB wild-type, liver | intravenous, 0.5 mg/kg | – | half-life | 2.21 h |
| C[C@](N)(Cc1ccc(O)c(O)c1)C(=O)O | static gravimetric method | supercritical CO2, 701.1 kg/m3 | 5 h, 323 K, pressure 15 MPa | – | solubility | 114 µg/mL (≈ 540 µM) |
| COc1cc2c(cc1OC)CN(CCc1ccc(NC(=O)c3cc(OC)c(OC)cc3NC(=O)c3cnc4ccccc4c3)cc1)CC2 | – | Wistar Unilever rat, plasma | intravenous, 7.5 mg/kg, 3 h | – | plasma concentration | 911 ng/mL |
| C[C@H](O)c1cc(C(=O)N[C@@H](C)Cn2ccc(-c3ccc(C#N)c(Cl)c3)n2)n[nH]1 | – | human | oral, 600 mg twice daily, with food | – | effective half-life | 15.3 h |
| Cc1cc(Nc2cc3ncccc3c(N[C@@H]3C[C@H]4CC[C@@H](C3)N4CCC#N)n2)n[nH]1 | – | Sprague-Dawley rat, male, plasma | oral, 100 mg/kg/day, last day of 4 weeks | – | Cmax | 9.96 ng/mL |
| CNC(=O)c1cc(Oc2ccc(NC(=O)Nc3ccc(Cl)c(C(F)(F)F)c3)cc2)ccn1 | – | nude mouse, MHCC97H tumour xenograft, subcutaneous tumour | intratumoral, ETS-1 siRNA | – | half-life | 30.8 ± 1.06 h |
| O=C(O)/C=C/c1ccc(O)c(O)c1 | UPLC-MS/MS | Wistar rat, microcirculation dysfunction model, plasma | oral, 100 mg/kg Salvia miltiorrhiza stem-leaf extract FS | – | CL/F | 6.5 ± 2 mL/min/kg |
| O=C1N=C(N2CCOCC2)CN1c1ccc(Cl)cc1 | – | beagle dog, both sexes, plasma | oral, 30 mg/kg, tablets, fasted | – | terminal half-life | 1.5 h |
| CNCc1ccc(-c2cc(-c3nc(-c4ccc(S(=O)(=O)C(C)C)cc4)cnc3N)on2)cc1 | – | mouse BALB/c female, plasma | intravenous, 60 mg/kg, from AUC(0-inf) | – | CL | 28.3 mL/min/kg |
| O=C(O)C(F)(F)c1ccccc1Nc1c(Cl)cc(F)cc1Cl | glucuronidation | human liver microsomes | 30 min, with: UDPGA | – | remaining compound | 105 ± 1.5% |
| Cc1cc(C)c(C#N)c(SCC(=O)c2ccc(F)cc2)n1 | metabolic stability | human, liver microsomes | 0.5 µM, pH 7.4 | – | microsomal CLint | 479 µL/min/mg |
| CNC(=O)c1ccc(-c2cnc3ncc(Cc4ccc5ncccc5c4)n3n2)cc1F | – | human, mild hepatic impairment (Child-Pugh A), plasma | oral, 200 mg single dose | – | half-life (geometric mean) | 5.37 h |
| CC(C)=CCC[C@](C)(O[C@@H]1O[C@H](CO)[C@@H](O)[C@H](O)[C@H]1O)[C@H]1CC[C@]2(C)[C@@H]1[C@H](O)C[C@@H]1[C@@]3(C)CC[C@H](O)C(C)(C)[C@@H]3[C@@H](O[C@@H]3O[C@H](CO)[C@@H](O)[C@H](O)[C@H]3O)C[C@]12C | – | Sprague Dawley rat, male, plasma | oral, 25 mg/kg, in frozen ginseng extract | – | CL/F | 318 ± 130 mL/min/kg |

| Molecule | test | test system | conditions | how to read | quantity | value |
| --- | --- | --- | --- | --- | --- | --- |
| [2H]C([2H])([2H])Oc1cc2c(cc1OC([2H])([2H])[2H])C1CC(=O)C(CC(C)C)CN1CC2 (stereo not shown) | measured: β-HTBZ | human, fasted | oral, 15 mg single dose | baseline: tetrabenazine 25 mg fasted | geometric mean ratio AUC0-t | 99.6% |
| C=C(C)[C@@H]1CC[C@]2(NCCN3CCS(=O)(=O)CC3)CC[C@]3(C)[C@H](CC[C@@H]4[C@@]5(C)CC=C(C6=CC[C@@](CF)(C(=O)O)CC6)C(C)(C)[C@@H]5CC[C@]43C)[C@@H]12 | – | healthy human | oral, 10 mg, single ascending dose, geometric mean | – | t1/2 | 25.3 h |
| Cc1ncnc2c1c(Cl)cn2[C@@H]1O[C@H](CO)[C@@H](O)[C@H]1O | – | mouse liver microsomes | 0 min, with: NADPH | – | remaining parent compound | 100% |
| C[C@]12CC[C@@H]3c4ccc(O)cc4CC[C@H]3[C@@H]1C[C@@H](O)[C@@H]2O | GC-MS | breast cancer women on NSAI, serum | vaginal, 0.03 mg, 24 h, day 0 | – | minimum serum concentration | 0 ng/mL |
| Cc1nc2cccc(OCC(C)(C)C(=O)NC(C)C)c2c(N)c1C(=O)O | – | female Sprague-Dawley rat, plasma | oral gavage, 100 mg/kg, day 7 | – | Cmax | 190 ± 79.5 ng/mL |
| Oc1ccc(/C=C/c2cc(O)cc(O)c2)cc1 | in situ intestinal perfusion | Sprague-Dawley rat, duodenum | 25 µg/mL, 120 min, pH 7.4 | – | effective permeability | 2.7033 ± 2.82e-05 ×10⁻⁶ cm/s |
| acyl ghrelin (human) | – | mouse, Ghsr knockout, striatum | intravenous, 10 min | – | brain/serum ratio | 4.3 µL/g |
| CC1=C2C[C@H]3[C@@H](CC[C@@H]4C[C@H](NS(C)(=O)=O)CC[C@@]43C)[C@@H]2CC[C@@]2(C1)O[C@@H]1C[C@H](C)CN[C@H]1[C@H]2C | – | patients, plasma | oral, 200 mg daily, day 22, cycle 1 | – | AUC(0-24) | 15100 ng·h/mL |
| Cc1cc(-c2ncc(CC(=O)Nc3ccc(-c4cnccn4)cn3)cc2C)ccn1 | – | patients, plasma | oral, dose not given, threshold for dysgeusia grade ≥2 | – | steady-state Cmax | < 118 ng/mL |
| CC(=O)N[C@@H](Cc1ccccc1)C(=O)N[C@H]1CCCNC(=O)[C@H](CCCNC(=N)N)NC(=O)[C@H](Cc2c[nH]c3ccccc23)NC(=O)[C@@H](CC2CCCCC2)NC(=O)[C@@H]2CCCN2C1=O | – | C57BL/6J mice, spinal cord | subcutaneous, 1 mg/kg | – | absorption half-life | 0.257 h |
| CCCC[C@H](NC(C)=O)C(=O)N[C@H]1CCC(=O)NC[C@@H](C(=O)N[C@@H](Cc2c[nH]c3ccccc23)C(N)=O)NC(=O)[C@H](CCCNC(=N)N)NC(=O)[C@@H](Cc2ccccc2)NC(=O)[C@H](Cc2c[nH]cn2)NC1=O | – | beagle dog, female, plasma | subcutaneous, 1.5 mg/kg daily, day 1 | – | AUC(0-last) | 271 ng·h/mL |
| Cn1c(-c2ccc(C(N)=O)cc2F)nnc1C(C)(C)Oc1c(F)cc(Cl)cc1F | – | young Japanese subjects, plasma | oral, 10 mg single dose, day 1 | – | AUC(0-inf) mean | 1280 ng·h/mL |
| O=C(O)COC[C@H]1CC[C@H](COC(=O)N(c2ccccc2)c2ccc(Cl)cc2)CC1 | – | human, plasma | oral, 30 µg, 12 h, multiple doses, twice daily, steady state | – | concentration | 1.11 ng/mL |
| CC(=O)N[C@H](C(=O)N[C@@H](CCCNC(=N)N)C(=O)N[C@H](C(=O)N[C@@H](CC(=O)O)C(=O)N[C@H](C(=O)N[C@@H](CCCNC(=N)N)C(=O)N[C@H](C(=O)N[C@@H](CC(=O)O)C(=O)N[C@H](C(N)=O)C(C)C)C(C)C)C(C)C)C(C)C)C(C)C | rotational rheometry | 1% w/v aqueous solution | shear rate range 1-1000 s^-1 | – | viscosity | 626 ± 40.2 Pa·s |
| CCCOc1ccc([C@H]2CNC(=O)N2c2ccc3[nH]cnc3c2)cc1 | – | human, elderly, fasted, plasma | oral, 800 mg twice daily, tablet, day 11, 2 to 12 h postdose, geometric mean | – | effective half-life | 3.22 h |
| C[C@H]1CNCCCN1S(=O)(=O)c1cccc2cncc(F)c12 | – | human, male, plasma | ocular instillation, 1 drop per eye twice daily, day 8, geometric mean, with: brimonidine fixed-dose combination | – | AUC(0-τ) | 0.106 ng·h/mL |
| COC(=O)c1ccc2c(c1)NC(=O)/C2=C(\Nc1ccc(N(C)C(=O)CN2CCN(C)CC2)cc1)c1ccccc1 | – | human mild liver impairment, plasma | oral, 150 mg twice daily, geometric mean | – | AUC(tau) steady state | 445 ng·h/mL |
| N#Cc1ccc(C(c2ccc(C#N)cc2)n2cncn2)cc1 | – | patients, plasma | oral, 2.5 mg once daily, inavolisib palbociclib letrozole arm | – | steady-state Cmin | 334 nM |
| O=C(c1nc2n(n1)[C@H](c1ccccc1)C[C@@H]2F)C1CC1 | – | human, plasma | oral, 75 mg, 24 h, single dose, fasted, healthy volunteers | – | concentration | 199 ng/mL |
| Cc1ncc([N+](=O)[O-])n1CC(C)O (stereo not shown) | – | human liver microsomes | 90 min | – | conversion to metabolites | ≤ 1% |

Repeated from above:
| Molecule | test | test system | conditions | how to read | quantity | value |
| --- | --- | --- | --- | --- | --- | --- |
| Cc1cc(Nc2ncc(Cl)c(Nc3ccccc3S(=O)(=O)C(C)C)n2)c(OC(C)C)cc1C1CCNCC1 | – | human, plasma | oral, 450 mg/day with food, steady state after dose 9 | – | Css,max total | 909 nM and 1120 nM and 1160 nM and 1090 nM and 1140 nM and 1020 nM and 1050 nM |
| CNC(=O)c1cc(Oc2ccc(NC(=O)Nc3ccc(Cl)c(C(F)(F)F)c3)cc2)ccn1 | LC-MS/MS | nude mice, HepG2 subcutaneous tumour, tumour | intratumoral, 20 µL per tumour, miR-140-3p plus PXR mutant | – | t1/2 | 26.4 ± 7.87 h |
| CC(=O)Nc1noc(C)n1 | HPLC-MS | C57BL/6 mouse, male, intestine | oral, 60 mg/kg, 45 min | – | concentration | 1020 to 8460 ng/g |
| CC(C)NC[C@@H](C(=O)N1CCN(c2ncnc3c2[C@H](C)C[C@H]3O)CC1)c1ccc(Cl)cc1 | – | human, Mild hepatic function (Child-Pugh), plasma | oral, 100 mg single dose, arithmetic mean | – | t1/2 | 48.6 h |
| CN(C)Cc1c(C(=O)NCCOc2ccc(C(=O)NO)cc2)oc2ccccc12 | – | human, plasma | oral, 60 mg, single dose on day -3 | – | half-life (median) | 8.31 h |
| CN(C)C/C=C/C(=O)Nc1cc2c(Nc3ccc(F)c(Cl)c3)ncnc2cc1O[C@H]1CCOC1 | – | human, plasma | oral, 10 mg once daily, day 27, geometric mean | – | half-life at steady state | 47 h |
